Published values collected from several papers.
Lines come from different studies, so protocols differ. Numbers after ± are the reported error.

CC(C)[C@H](NC(=O)[C@@H]1CCCN1C(=O)[C@H](CCCNC(=N)N)NC(=O)[C@H](CS)NC(=O)[C@H](Cc1c[nH]c2ccccc12)NC(=O)[C@H](CCCNC(=N)N)NC(=O)[C@@H](Cc1ccccc1)NC(=O)[C@H](Cc1c[nH]cn1)NC(=O)[C@H](CCC(=O)O)NC(=O)[C@H](CS)NC(=O)[C@H](CS)NC(=O)[C@@H]1CC(=O)N[C@@H](CCCNC(=N)N)C(=O)NCC(=O)N[C@@H](CC(=O)O)C(=O)N[C@H](Cc2ccc(O)cc2)C(=O)N1)C(N)=O [technetium-99m labelled]
tissue uptake (C57 mice B16/F1 melanoma female, pancreas; iv, 2 h, with: NDP-MSH 10 µg co-injected): 0.19 ± 0.11 %ID/g

O=C([O-])CN1CCN(CC(=O)[O-])CCN(CC(=O)[O-])CCN(CC(=O)[O-])CC1.[64Cu+2]
tissue uptake (healthy athymic nude mice, stomach; intravenous, 4 h): 0.72 %ID/g

N=C(N)NCCC[C@@H]1NC(=O)[C@H](CCCCNC(=O)CON=C[C@H](F)[C@@H](O)[C@H](O)[C@H](O)CO)NC(=O)[C@@H](Cc2ccc(O)cc2)NC(=O)[C@H](CC(=O)O)NC(=O)CNC1=O [fluorine-18 labelled]
tissue uptake (nude mice U-87 MG tumour, kidney; intravenous, 0.5 h): 4.75 ± 5.6 %ID/g

CCCC[C@H](NC(=O)CNC(=O)CNC(=O)CN1CCN(CC(=O)O)CCN(CC(=O)O)CC1)C(=O)N[C@H]1CC(=O)NCCCC[C@@H](C(N)=O)NC(=O)[C@H](Cc2c[nH]c3ccccc23)NC(=O)[C@H](CCCNC(=N)N)NC(=O)[C@@H](Cc2ccccc2)NC(=O)[C@H](Cc2c[nH]cn2)NC1=O [gallium-67 labelled]
tissue uptake (female C57 mice, B16/F1 melanoma, tumor; intravenous, 0.037 MBq, 0.5 h): 20.6 ± 1.97 %ID/g

CCCC[C@@H]1NC(=O)[C@@H](NC(=O)[C@H](CCC(=O)O)NC(=O)CNC(=O)CN2CCN(CC(=O)O)CCN(CC(=O)O)CCN(CC(=O)O)CC2)CCCCNC(=O)C[C@@H](C(N)=O)NC(=O)[C@H](C(C)C)NC(=O)[C@@H]2CCCN2C(=O)[C@H](CCCNC(=N)N)NC(=O)CNC(=O)[C@H](Cc2c[nH]c3ccccc23)NC(=O)[C@H](CCCNC(=N)N)NC(=O)[C@@H](Cc2ccccc2)NC(=O)[C@H](Cc2c[nH]cn2)NC(=O)[C@H](CCC(=O)O)NC1=O [gallium-67 labelled]
tissue uptake (C57 mice with B16/F1 melanoma, bone; intravenous, 0.037 MBq, 0.5 h): 0.61 ± 0.29 %ID/g

O=C([O-])c1cccc(CN(CCN(Cc2cn(Cc3ccccc3)nn2)Cc2cccc(C(=O)[O-])n2)Cc2cn(Cc3ccccc3)nn2)n1.[64Cu+2]
tissue uptake (healthy athymic nude mice, blood; intravenous, 24 h): 1.19 %ID/g

CCCC[C@H](NC(=O)CN1CCC(NC(=O)CN2CCN(CC(=O)O)CCN(CC(=O)O)CCN(CC(=O)O)CC2)CC1)C(=O)N[C@H]1CC(=O)NCCCC[C@@H](C(N)=O)NC(=O)[C@H](Cc2c[nH]c3ccccc23)NC(=O)[C@H](CCCNC(=N)N)NC(=O)[C@@H](Cc2ccccc2)NC(=O)[C@H](Cc2c[nH]cn2)NC1=O [gallium-68 labelled]
tissue uptake (male C57BL/6J mice, B16-F10 tumours, brain; intravenous, 1 h, blocking study, with: 100 µg non-radioactive Ga-peptide): 0.1 %ID/g

CC(C)[C@H](NC(=O)[C@@H]1CCCN1C(=O)[C@H](CCCNC(=N)N)NC(=O)[C@H](CS)NC(=O)[C@H](Cc1c[nH]c2ccccc12)NC(=O)[C@H](CCCNC(=N)N)NC(=O)[C@@H](Cc1ccccc1)NC(=O)[C@H](Cc1c[nH]cn1)NC(=O)[C@H](CCC(=O)O)NC(=O)[C@H](CS)NC(=O)[C@H](CS)NC(=O)CNC(=O)[C@@H]1CC(=O)N[C@@H](CCCNC(=N)N)C(=O)NCC(=O)N[C@@H](CC(=O)O)C(=O)N[C@H](Cc2ccc(O)cc2)C(=O)N1)C(N)=O [technetium-99m labelled]
tissue uptake (C57 mice B16/F1 melanoma female, kidneys; iv, 0.037 MBq, 4 h): 14.8 ± 5.41 %ID/g

O=C([O-])CN1CCN(CC(=O)[O-])CCN(CC(=O)NCCc2ccc3c(c2)C2C=CCC2C(c2cc4c(cc2Br)OCO4)N3)CCN(CC(=O)[O-])CC1.[111In+3] (stereo not shown)
tissue uptake (mice with Hec50 tumour xenograft, mammary gland; 1 h): 0.72 ± 0.24 %ID/g

CCCC[C@H](NC(=O)CNC(=O)CNC(=O)CN1CCN(CC(=O)O)CCN(CC(=O)O)CCN(CC(=O)O)CC1)C(=O)N[C@H]1CC(=O)NCCCC[C@@H](C(N)=O)NC(=O)[C@H](Cc2c[nH]c3ccccc23)NC(=O)[C@H](CCCNC(=N)N)NC(=O)[C@@H](Cc2ccccc2)NC(=O)[C@H](Cc2c[nH]cn2)NC1=O [gallium-67 labelled]
tissue uptake (female C57 mice, B16/F1 melanoma, skin; intravenous, 0.037 MBq, 24 h): 0.76 ± 0.21 %ID/g

CN1C(=O)[C@@H](Cc2ccc(O)c(I)c2)NC(=O)CNC(=O)[C@H](Cc2ccc3ccccc3c2)NC(=O)[C@H](CCCNC(=N)N)NC(=O)[C@H]1CCCNC(=O)c1ccc(CNC(=O)CN2CCN(CC(=O)O)CCN(CC(=O)O)CCN(CC(=O)O)CC2)cc1 [lutetium-177 labelled]
tissue uptake (refers to: 177Lu radioactivity; female CB-17 SCID mice, Daudi xenograft, kidney; intravenous, 0.16 nmol per mouse, 48 h): 1.2 ± 0.13 %ID/g

NC12CNCCNCC(NCc3ccc(CNC(=O)CCCC(=O)NCc4ccc(-c5nncnn5)cc4)cc3)(CNCCNC1)CNCCNC2.[64Cu+2]
tissue uptake (athymic nude mice, SW1222 xenograft, stomach with contents; 12 h, pretargeting with huA33-TCO, 24 h interval): 0.21 ± 0.1 %ID/g

O=C(NCC1OC2CCC=CCCC2O1)c1ccc([18F])nc1 (stereo not shown)
tissue uptake (female BALB/c nude mice, liver; intravenous, 60 min): 2.9 ± 0.4 %ID/g

Some of these lines once more:
CN1C(=O)[C@@H](Cc2ccc(O)c(I)c2)NC(=O)CNC(=O)[C@H](Cc2ccc3ccccc3c2)NC(=O)[C@H](CCCNC(=N)N)NC(=O)[C@H]1CCCNC(=O)c1ccc(CNC(=O)CN2CCN(CC(=O)O)CCN(CC(=O)O)CCN(CC(=O)O)CC2)cc1 [lutetium-177 labelled]
tissue uptake (refers to: 177Lu radioactivity; female CB-17 SCID mice, Daudi xenograft, kidney; intravenous, 0.16 nmol per mouse, 48 h): 1.2 ± 0.13 %ID/g

NC12CNCCNCC(NCc3ccc(CNC(=O)CCCC(=O)NCc4ccc(-c5nncnn5)cc4)cc3)(CNCCNC1)CNCCNC2.[64Cu+2]
tissue uptake (athymic nude mice, SW1222 xenograft, stomach with contents; 12 h, pretargeting with huA33-TCO, 24 h interval): 0.21 ± 0.1 %ID/g
